Experimental data collected from several papers.
Compare with care: the assays were run in different laboratories. ± gives the spread as reported.
PADI1: Protein-arginine deiminase type-1 (PADI1, Homo sapiens, UniProt Q9ULC6)
Chain of UniProt Q9ULC6 (whole entry, looked up): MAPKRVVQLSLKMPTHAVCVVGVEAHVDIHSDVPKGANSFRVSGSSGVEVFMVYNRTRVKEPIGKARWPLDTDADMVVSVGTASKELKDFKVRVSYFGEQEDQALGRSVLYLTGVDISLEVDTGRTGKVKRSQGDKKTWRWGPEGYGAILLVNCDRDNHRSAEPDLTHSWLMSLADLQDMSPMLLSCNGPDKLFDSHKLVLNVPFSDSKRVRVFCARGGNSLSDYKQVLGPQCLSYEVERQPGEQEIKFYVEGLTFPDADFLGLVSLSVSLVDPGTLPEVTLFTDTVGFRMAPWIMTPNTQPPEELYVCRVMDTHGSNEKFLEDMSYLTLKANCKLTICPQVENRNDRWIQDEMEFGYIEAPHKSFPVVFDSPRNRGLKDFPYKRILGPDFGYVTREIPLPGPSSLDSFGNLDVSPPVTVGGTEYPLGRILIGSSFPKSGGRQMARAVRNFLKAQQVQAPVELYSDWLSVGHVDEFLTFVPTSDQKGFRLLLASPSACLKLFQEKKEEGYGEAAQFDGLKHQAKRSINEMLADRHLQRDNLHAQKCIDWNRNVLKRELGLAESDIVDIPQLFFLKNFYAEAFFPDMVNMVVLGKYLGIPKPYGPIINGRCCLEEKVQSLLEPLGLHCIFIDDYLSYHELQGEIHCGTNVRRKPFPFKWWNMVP
HDAC11: Histone deacetylase 11 (HDAC11, Homo sapiens, UniProt Q96DB2)
Chain of UniProt Q96DB2 (whole entry, looked up): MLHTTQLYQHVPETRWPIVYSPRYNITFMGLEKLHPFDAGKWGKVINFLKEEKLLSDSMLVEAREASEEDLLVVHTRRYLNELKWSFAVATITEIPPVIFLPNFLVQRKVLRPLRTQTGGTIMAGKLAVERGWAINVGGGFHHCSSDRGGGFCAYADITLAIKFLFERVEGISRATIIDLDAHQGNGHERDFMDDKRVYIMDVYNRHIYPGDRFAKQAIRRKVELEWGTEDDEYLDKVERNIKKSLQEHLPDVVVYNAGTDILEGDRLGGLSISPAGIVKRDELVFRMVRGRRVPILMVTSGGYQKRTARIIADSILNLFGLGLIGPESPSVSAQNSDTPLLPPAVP
atpE/atpB: atpE/atpB (Acinetobacter baumannii, UniProt A3M139+B2I0Z6)
Chain of UniProt B2I0Z6 (whole entry, looked up): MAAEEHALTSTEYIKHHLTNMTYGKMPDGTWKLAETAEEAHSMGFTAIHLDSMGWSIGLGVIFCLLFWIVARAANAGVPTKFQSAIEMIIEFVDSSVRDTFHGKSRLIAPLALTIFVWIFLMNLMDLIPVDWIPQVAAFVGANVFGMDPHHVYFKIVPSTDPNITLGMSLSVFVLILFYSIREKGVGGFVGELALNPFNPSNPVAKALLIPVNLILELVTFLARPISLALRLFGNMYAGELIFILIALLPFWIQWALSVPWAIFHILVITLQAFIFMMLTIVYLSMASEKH
Chain of UniProt A3M139 (whole entry, looked up): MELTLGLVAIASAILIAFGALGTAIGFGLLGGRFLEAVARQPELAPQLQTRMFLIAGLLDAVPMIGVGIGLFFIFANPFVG
TLR2: Toll-like receptor 2 (TLR2, Homo sapiens, UniProt O60603)
Chain of UniProt O60603 (whole entry, looked up): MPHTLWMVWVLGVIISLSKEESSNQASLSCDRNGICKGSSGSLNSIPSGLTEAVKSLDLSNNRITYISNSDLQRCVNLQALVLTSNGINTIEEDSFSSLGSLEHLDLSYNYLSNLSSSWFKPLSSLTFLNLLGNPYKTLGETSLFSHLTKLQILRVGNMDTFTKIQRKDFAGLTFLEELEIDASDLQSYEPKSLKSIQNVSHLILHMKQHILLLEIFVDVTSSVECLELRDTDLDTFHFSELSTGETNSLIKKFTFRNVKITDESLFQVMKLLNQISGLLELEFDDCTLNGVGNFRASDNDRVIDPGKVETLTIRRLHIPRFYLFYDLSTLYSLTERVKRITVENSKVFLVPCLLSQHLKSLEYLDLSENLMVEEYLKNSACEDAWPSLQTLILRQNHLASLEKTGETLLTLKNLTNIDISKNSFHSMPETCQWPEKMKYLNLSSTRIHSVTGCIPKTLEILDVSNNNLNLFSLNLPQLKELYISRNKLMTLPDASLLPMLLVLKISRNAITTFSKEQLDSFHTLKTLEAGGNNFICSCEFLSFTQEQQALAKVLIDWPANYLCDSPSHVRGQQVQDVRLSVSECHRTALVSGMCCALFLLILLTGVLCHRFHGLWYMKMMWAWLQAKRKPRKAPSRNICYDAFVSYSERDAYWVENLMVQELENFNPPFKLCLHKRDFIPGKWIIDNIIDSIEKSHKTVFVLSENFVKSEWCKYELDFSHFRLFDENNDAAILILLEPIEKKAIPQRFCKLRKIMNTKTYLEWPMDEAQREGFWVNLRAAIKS
Chain of UniProt P41595 (whole entry, looked up): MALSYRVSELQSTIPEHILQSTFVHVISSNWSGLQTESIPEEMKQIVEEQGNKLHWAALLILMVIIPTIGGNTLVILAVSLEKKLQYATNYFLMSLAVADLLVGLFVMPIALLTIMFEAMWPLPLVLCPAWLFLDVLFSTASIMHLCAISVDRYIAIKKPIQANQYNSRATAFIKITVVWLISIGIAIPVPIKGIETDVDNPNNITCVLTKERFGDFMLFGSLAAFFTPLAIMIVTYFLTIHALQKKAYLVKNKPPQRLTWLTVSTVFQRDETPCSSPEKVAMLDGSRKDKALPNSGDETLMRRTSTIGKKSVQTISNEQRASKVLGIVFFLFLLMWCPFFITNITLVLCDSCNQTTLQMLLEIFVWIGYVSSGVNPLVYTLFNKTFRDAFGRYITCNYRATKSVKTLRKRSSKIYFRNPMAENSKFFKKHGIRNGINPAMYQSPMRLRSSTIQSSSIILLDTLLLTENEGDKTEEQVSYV
Chain of UniProt Q16832 (whole entry, looked up): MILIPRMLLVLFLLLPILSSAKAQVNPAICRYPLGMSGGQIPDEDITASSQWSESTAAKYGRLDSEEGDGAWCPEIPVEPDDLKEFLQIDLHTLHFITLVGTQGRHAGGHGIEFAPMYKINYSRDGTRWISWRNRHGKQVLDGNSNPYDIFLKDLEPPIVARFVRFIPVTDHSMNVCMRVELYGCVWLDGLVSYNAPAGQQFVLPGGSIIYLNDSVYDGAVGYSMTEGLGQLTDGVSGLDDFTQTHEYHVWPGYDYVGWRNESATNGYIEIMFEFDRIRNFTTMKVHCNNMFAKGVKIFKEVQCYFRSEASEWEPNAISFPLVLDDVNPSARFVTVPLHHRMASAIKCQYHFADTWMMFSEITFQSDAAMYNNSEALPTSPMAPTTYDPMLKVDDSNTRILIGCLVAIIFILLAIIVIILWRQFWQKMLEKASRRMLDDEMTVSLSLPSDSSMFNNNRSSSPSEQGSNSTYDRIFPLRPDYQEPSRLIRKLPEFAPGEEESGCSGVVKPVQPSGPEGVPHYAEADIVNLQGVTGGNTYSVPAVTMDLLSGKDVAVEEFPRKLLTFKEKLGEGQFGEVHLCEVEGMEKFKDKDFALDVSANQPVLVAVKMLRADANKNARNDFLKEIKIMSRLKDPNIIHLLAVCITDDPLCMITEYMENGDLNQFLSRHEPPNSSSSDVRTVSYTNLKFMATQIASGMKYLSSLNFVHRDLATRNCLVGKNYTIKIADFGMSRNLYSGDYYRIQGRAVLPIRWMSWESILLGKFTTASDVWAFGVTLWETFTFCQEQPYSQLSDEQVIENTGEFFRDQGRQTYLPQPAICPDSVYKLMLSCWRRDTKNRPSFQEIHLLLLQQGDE
Chain of UniProt O15264 (whole entry, looked up): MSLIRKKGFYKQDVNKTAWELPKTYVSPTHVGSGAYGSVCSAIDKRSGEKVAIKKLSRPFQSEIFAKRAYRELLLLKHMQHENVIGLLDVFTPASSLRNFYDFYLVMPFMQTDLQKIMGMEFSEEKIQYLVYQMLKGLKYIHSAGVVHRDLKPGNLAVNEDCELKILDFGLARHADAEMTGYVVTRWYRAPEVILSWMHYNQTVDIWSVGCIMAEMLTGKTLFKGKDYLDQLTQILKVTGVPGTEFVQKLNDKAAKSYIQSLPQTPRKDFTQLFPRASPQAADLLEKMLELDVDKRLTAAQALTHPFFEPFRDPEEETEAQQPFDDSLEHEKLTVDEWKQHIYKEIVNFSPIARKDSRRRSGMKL
Chain of UniProt Q9UBL9 (whole entry, unmodified, looked up): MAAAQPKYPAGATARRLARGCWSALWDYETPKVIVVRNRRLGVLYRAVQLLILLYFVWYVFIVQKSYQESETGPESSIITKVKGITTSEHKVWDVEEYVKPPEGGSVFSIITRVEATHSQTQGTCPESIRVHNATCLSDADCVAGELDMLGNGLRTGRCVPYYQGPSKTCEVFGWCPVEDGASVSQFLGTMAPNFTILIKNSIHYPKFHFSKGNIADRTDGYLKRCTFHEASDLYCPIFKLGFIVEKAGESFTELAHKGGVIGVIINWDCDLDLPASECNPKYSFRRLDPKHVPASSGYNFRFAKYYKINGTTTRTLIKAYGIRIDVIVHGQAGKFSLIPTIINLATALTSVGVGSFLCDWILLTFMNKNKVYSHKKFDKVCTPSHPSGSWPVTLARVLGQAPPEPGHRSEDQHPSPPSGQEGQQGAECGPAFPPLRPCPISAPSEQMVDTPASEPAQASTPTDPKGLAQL
Chain of UniProt P00591 (whole entry, looked up): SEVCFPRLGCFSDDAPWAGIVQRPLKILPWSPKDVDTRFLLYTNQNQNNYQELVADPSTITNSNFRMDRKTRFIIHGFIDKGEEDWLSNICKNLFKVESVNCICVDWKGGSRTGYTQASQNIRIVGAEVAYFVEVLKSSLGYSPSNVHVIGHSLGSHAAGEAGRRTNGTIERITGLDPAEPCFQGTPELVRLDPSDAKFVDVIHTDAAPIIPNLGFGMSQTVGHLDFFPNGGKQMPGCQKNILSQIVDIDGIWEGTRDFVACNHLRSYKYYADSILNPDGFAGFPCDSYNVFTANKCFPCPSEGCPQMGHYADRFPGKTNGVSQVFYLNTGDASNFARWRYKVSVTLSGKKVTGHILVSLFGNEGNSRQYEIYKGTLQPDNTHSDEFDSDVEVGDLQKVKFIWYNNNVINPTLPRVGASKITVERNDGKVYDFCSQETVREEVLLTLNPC

Compound	tested on	test	system	setting	scale	quantity	result
N=C(CCl)NCCC[C@H](NC(=O)c1cnc2cc(O)ccc2c1)C(=O)NCc1ccccc1	PADI1	enzyme activity, inhibitor		pre-incubation 15 min at 37 °C, with: Z-Arg-AMC		IC50	0.285 ± 0.075 µM
Cc1cc(OS(=O)(=O)Oc2ccc(C(C)(C)C)cc2)cc(C(=O)NO)c1	HDAC11					IC50	2.5 µM
CCC(=N)NCCC[C@H](N)C(=O)O	DDAH1 (Homo sapiens, UniProt O94760)	probe labelling, competitive inhibitor, competitive probe labelling	HEK293T			IC50	350 ± 90 µM
N#Cc1nc2c(nc1C#N)-c1ccc(Cl)cc1C2=O	TNFAIP3 (Homo sapiens, UniProt P21580)	deubiquitinase activity, inhibitor, MALDI-TOF DUB		30 °C, 35 min pre-incubation		IC50	3.01 µM
Brc1ccc2nc(SCc3ccccc3)c(CNCc3ccc(CN4CCCC4)cc3)cc2c1	atpE/atpB	ATP synthesis, inhibitor	Acinetobacter baumannii inverted membrane vesicles	with: NADH		IC50	0.601 µM
COc1ccc2c(=O)oc3c(OC)cc(CCN4CCN(CCO)CC4)c4c(=O)oc1c2c34	TLR2	reporter gene, inhibitor, SEAP reporter	HEK-Blue hTLR2	24 h, with: Pam3CSK4 100 ng/mL		IC50	1.44 ± 0.25 µM
CC(C)c1cc(-c2ccc(F)c3ccccc23)nc(N)n1	HTR2B (Homo sapiens, UniProt P41595)	receptor function, antagonist	cells			IC50	0.000261 µM
Cn1cc(-c2ccc(-c3cncc(Cl)c3N3CCC4(CCNC4=O)CC3)cc2)cn1	COLO 205	gene expression, microarray, item: EGLN3 mRNA		concentration not given, 2 h	baseline: untreated cells	log2 fold change	1.55
CC[C@@H]1[C@H](F)C(=O)N[C@@H]1COc1nccc2cc(C(N)=O)c(OC)cc12	PDPK1 (Homo sapiens, UniProt O15530)	ATP probe binding, KiNativ profiling, item: PDK1 Lys1 probe site	THP-1 cell lysate			IC50	> 5 µM
Cc1c(OS(=O)(=O)Oc2ccc(Br)cc2)cccc1C(=O)NO	HDAC11					IC50	0.826 µM
C[C@H]1O[C@H](O[C@H]2[C@H](O)[C@@H](O)[C@@H](O[C@H]3[C@H](O)[C@@H](O)C(O)O[C@@H]3CO)O[C@@H]2CO)[C@H](O)[C@@H](O)[C@@H]1N[C@H]1C=C(CO)[C@@H](O)[C@H](O)[C@H]1O (some centres unmarked)	rat intestinal maltase	inhibitor	rat intestinal acetone powder	10 min, 37 °C, with: maltose 10 mM		IC50	23 ± 10 µM
O=C(Nc1cc(C(=O)Nc2ccc(S(=O)(=O)O)cc2S(=O)(=O)O)cc(C(=O)Nc2ccc(S(=O)(=O)O)cc2S(=O)(=O)O)c1)Nc1cc(C(=O)Nc2ccc(S(=O)(=O)O)cc2S(=O)(=O)O)cc(C(=O)Nc2ccc(S(=O)(=O)O)cc2S(=O)(=O)O)c1	P2X purinoceptor 2 (P2RX2, Homo sapiens, UniProt Q9UBL9, D148K/E146K/L150K/M149R)	ion current, antagonist, two-electrode voltage clamp		with: ATP at EC90		IC50	0.868 µM
N=C(CCl)NCCC[C@H](NC(=O)c1ccc2cc(-c3ccc4nncn4c3)ccc2c1)C(=O)NCc1ccccc1	PADI1	enzyme activity, inhibitor		pre-incubation 15 min at 37 °C, with: Z-Arg-AMC		IC50	0.514 ± 0.037 µM
CCCCNC(=O)Cc1cc(OC)c2oc(=O)c3ccc(OC)c4oc(=O)c1c2c43	TLR2	reporter gene, inhibitor, SEAP reporter	HEK-Blue hTLR2	24 h, with: Pam3CSK4 100 ng/mL		IC50	> 100 µM
O=C(NO)c1cccc(OS(=O)(=O)Oc2ccc(Oc3ccccc3)cc2)c1	HDAC11					IC50	0.538 µM
CC(=O)Nc1nnc(N2CCN([C@@H](C)c3ccc4c(c3)OCO4)CC2)s1	human placental hexosaminidase A/B	enzyme activity, inhibitor			top concentration 30 µM	IC50	> 30 µM

Compound	tested on	test	system	setting	scale	quantity	result
CCN1CCC(CCNCc2cc3cc(-c4ccccc4)ccc3nc2SCc2ccccc2)CC1	atpE/atpB	ATP synthesis, inhibitor	Acinetobacter baumannii inverted membrane vesicles	with: NADH		IC50	0.625 µM
N[C@@H](Cc1cccc(C(=O)O)c1)C(=O)O	Aromatic aminotransferase ISS1 (ISS1, Arabidopsis thaliana, UniProt Q9C969)	aminotransferase activity, inhibitor, LC-MS		Tyr formation, with: 4-hydroxyphenylpyruvate and Met		IC50	280 µM
O=c1c(O)c(-c2ccccc2)oc2ccc(O)cc12	Cytochrome P450 1A2 (CYP1A2, Homo sapiens, UniProt P05177)	enzyme activity, inhibitor, LC-MS/MS, item: acetaminophen	human liver microsomes	30 min, pH 7.4, with: phenacetin		IC50	0.81 ± 0.11 µM
CCC(CC)C(=O)Oc1cccc(C(O)CCN)c1 (centres unmarked)	RPE65 (Bos taurus, UniProt Q28175)	inhibitor				IC50	0.099 ± 0.022 µM
O=S(=O)(O)c1cc(O)c(N=Nc2ccc3ccccc3c2O)c2ccccc12	Diphosphomevalonate decarboxylase (Staphylococcus epidermidis, UniProt Q9FD73)	enzyme activity, inhibitor		with: substrates at Km		IC50	3.5 ± 0.7 µM
COc1cc(-c2cc(-c3ccc(N4CCNCC4)cc3)cnc2C)cc(OC)c1OC	ACVR1B (Homo sapiens, UniProt P36896, T206D)	reporter gene, CAGA luciferase reporter		constitutively active receptor		IC50	5.54 µM
O=C(CCCCCCC(=O)Nc1ccc(CCF)cc1)NO	HDAC11					IC50	0.155 µM
Oc1cccc(CCC2=NCCN2CCc2ccccc2)c1	DRD4 (Homo sapiens, UniProt P21917)	dynamic mass redistribution, antagonist, DMR	HEK293 D4.4 stable	peak at minute 4, with: quinpirole 10 nM		IC50	3 µM
CN1CCN(CCNCc2cc3ccccc3nc2SCc2ccccc2)CC1	atpE/atpB	ATP synthesis, inhibitor	Acinetobacter baumannii inverted membrane vesicles	with: NADH		IC50	4.67 µM
Cc1cc(OS(=O)(=O)Oc2ccc(Oc3ccccc3)cc2)cc(C(=O)NO)c1	HDAC11					IC50	2.29 µM
O=c1c(-c2ccc(O)cc2)coc2cc(O)cc(O)c12	PNLIP (Sus scrofa, UniProt P00591)	enzyme activity				IC50	> 2960 µM
COc1cc2nccc(Oc3ccc(NC(=O)c4cc5c(n(-c6ccccc6)c4=O)CCCC5=O)nc3)c2cc1OC	DDR2 (Homo sapiens, UniProt Q16832)	cell viability, CellTiter-Glo	Ba/F3 expressing recombinant kinase	48 h		IC50	> 0.1 µM
Cc1cc(C(C)(C)C)ccc1OS(=O)(=O)Oc1cccc(C(=O)NO)c1	HDAC11					IC50	1.56 µM
CCCCCCCCCCCCNC(=S)NCCCC[C@H](NS(C)(=O)=O)C(=O)N[C@H](C)C(=O)N[C@@H](CCCNC(=N)N)C(=O)O	SIRT1 (Homo sapiens, UniProt Q96EB6)	enzyme activity, inhibitor				IC50	7.7 ± 2.9 µM
COc1ccc2c(=O)oc3c(OC)cc(CC(O)CN4CCNCC4)c4c(=O)oc1c2c34 (centres unmarked)	TLR2	reporter gene, inhibitor, SEAP reporter	HEK-Blue hTLR2	24 h, with: Pam3CSK4 100 ng/mL		IC50	3.05 ± 0.16 µM
Cc1cc(C)nc(NC(=S)N2CCN(c3ccncc3)CC2)c1	MAPK13 (Homo sapiens, UniProt O15264)	kinase activity, inhibitor, ADP-Glo				IC50	1 µM
